Measurements gathered from unrelated publications.
Parts stem from different laboratories: compare values within a part only. Positions count from the first letter of the parent shown.

Sample 1
Target: Runt-related transcription factor 1, full length (RUNX1, Homo sapiens, UniProt Q01196-8, residues 1-480)
Method: protein-binding microarray
Form: hairpin DNA
Matrix: in vitro
Concentration: not given
Setting: whole hairpin DNA, median over replicate spots
Relative to: not given
Direction: higher = stronger binding
`CTCAGTTCGGTGGGCTGGACTCCTGTCCAGCCCACCGAACTGAGACACTC (5mC at 8 36)` gave a median fluorescence of 1960 a.u.
With `GAGGCCTGTTGTGGTCGGCCTCCTGGCCGACCACAACAGGCCTCACACTC (5mC at 16)` the median fluorescence was 2610 a.u.
`GAGGCCTGTTGTGGGTGGCCTCCTGGCCACCCACAACAGGCCTCACACTC` gave a median fluorescence of 2130 a.u.
With `GAGGCCTATCGCGGTTGGCCTCCTGGCCAACCGCGATAGGCCTCACACTC` the median fluorescence was 2400 a.u.
For `GAGGCCCAACCGTAACAGCCTCCTGGCTGTTACGGTTGGGCCTCACACTC`, the median fluorescence was 1810 a.u.
`GAGGCCTGTTGTGGCGGGCCTCCTGGCCCGCCACAACAGGCCTCACACTC (5mC at 15)` gave a median fluorescence of 2110 a.u.
For `GAGGCCCAACCACAACAGCCTCCTGGCTGTTGTGGTTGGGCCTCACACTC`, the median fluorescence was 2990 a.u.
With `GAGGCCCAACCGCGACAGCCTCCTGGCTGTCGCGGTTGGGCCTCACACTC (5mC at 13)` the median fluorescence was 2910 a.u.

Sample 2
Target: Sal-like protein 4, full length isoform A (SALL4, Homo sapiens, UniProt Q9UJQ4, residues 1-1053)
UniProt Q9UJQ4, sequence (whole entry, looked up): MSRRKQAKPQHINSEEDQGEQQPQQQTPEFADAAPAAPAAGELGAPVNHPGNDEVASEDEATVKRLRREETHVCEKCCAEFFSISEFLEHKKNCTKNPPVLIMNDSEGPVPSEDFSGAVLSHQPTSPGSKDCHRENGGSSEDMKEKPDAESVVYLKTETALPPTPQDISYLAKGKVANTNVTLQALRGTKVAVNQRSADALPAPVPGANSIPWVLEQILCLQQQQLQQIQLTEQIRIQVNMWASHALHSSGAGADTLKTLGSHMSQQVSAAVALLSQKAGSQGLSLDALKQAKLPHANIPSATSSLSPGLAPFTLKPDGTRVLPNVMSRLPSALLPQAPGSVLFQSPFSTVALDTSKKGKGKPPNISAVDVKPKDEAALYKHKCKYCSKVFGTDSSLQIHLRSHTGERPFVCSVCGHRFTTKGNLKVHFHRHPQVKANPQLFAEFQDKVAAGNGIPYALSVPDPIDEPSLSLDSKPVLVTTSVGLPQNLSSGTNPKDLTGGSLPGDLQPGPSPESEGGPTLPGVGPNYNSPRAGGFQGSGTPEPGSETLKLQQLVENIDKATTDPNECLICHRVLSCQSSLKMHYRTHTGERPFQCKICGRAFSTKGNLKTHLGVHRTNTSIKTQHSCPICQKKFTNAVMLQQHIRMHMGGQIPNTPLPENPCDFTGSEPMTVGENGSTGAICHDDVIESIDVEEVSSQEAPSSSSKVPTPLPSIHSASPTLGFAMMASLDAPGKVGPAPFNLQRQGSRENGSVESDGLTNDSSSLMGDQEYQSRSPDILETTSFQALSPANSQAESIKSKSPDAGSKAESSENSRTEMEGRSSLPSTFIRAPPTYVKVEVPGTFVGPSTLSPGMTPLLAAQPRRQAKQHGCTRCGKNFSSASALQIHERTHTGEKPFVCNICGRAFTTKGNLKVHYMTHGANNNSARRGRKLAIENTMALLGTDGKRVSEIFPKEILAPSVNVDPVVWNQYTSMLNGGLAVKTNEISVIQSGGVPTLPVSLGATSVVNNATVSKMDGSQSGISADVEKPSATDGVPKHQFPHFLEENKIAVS
Method: universal PBM
Form: double-stranded DNA, one strand shown
Matrix: in vitro
Concentration: 600 nM
Setting: 8-mer, flanks averaged, mean of replicates
Direction: higher = stronger binding
The E-score of `CAAGGGTA` is reported as 0.0101.
For `ACAGGGCA`, the E-score was -0.0219.
With `ATGTTAGC` the E-score was 0.104.
`GACGTTTA` has an E-score of 0.0982.
`CCTCCTTA` gave an E-score of -0.118.
`GGGTCTCA` gave an E-score of -0.185.
`GACTGCCA` gave an E-score of -0.117.
`CGTACGGC` gave an E-score of -0.11.

Sample 3
Target: Interferon regulatory factor 5, full length, phosphomimetic (IRF5, Homo sapiens, UniProt Q13568-2, residues 1-514, K96S/S451D/S453D/S456D/S462D)
Method: protein-binding microarray
Form: double-stranded DNA, one strand shown
Matrix: in vitro
Concentration: 250 nM
Setting: 60-bp whole probe
Together with: salmon DNA 0.4 mg/ml
Relative to: random background probes
Direction: higher = stronger binding
Constant ends, left off below: GCCTAGCAC … GTCTTGATTCGCTTGACGCTGCTG
For `TTAGGTATCGGTTTTCGGTTAGTGCTA`, the log fluorescence was 9.1 z-score.
With `TTAGGTTTCGGTCTCGGCTAGTGCTAG` the log fluorescence was 10.2 z-score.
`TTAGATATCAGTATCGCTTAGTGCTAG` has a log fluorescence of 3.92 z-score.
For `GACGAACTGAGACTCGAGACGTGCTAG`, the log fluorescence was -0.361 z-score.
`TTAGGTTTCGGTTTCCGTTAGTGCTAG` has a log fluorescence of 10.7 z-score.
With `TCAGATTTCAATTAAAAACTGTGCTAG` the log fluorescence was 1.32 z-score.
For `GACGGACTGGACACTGGTGACGTGCTA`, the log fluorescence was -0.554 z-score.
`AACCTTATTAAGATTGTGCAAGTGCTA` has a log fluorescence of 0.16 z-score.

Mixed results
Starting sequence: viral docking peptide; KGVKRKLFAEDSS; partner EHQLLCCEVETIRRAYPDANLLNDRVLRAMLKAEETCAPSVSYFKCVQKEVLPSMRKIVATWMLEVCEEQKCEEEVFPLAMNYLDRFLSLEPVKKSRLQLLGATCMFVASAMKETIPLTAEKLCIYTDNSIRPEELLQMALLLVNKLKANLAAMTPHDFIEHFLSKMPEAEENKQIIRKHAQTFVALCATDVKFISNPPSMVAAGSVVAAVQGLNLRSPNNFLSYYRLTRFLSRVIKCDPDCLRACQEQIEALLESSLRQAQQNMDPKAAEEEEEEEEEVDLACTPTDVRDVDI
`D11V`: “normalised enrichment score” 0.536 (CCND1, cyclin fold, Cln2 fusion (human); yeast growth competition, sequencing; yeast; strong parent motif; relative to: not given, higher = stronger binding).

A few entries again (sample 3):
With `TTAGGTTTCGGTCTCGGCTAGTGCTAG` the log fluorescence was 10.2 z-score.
For `GACGGACTGGACACTGGTGACGTGCTA`, the log fluorescence was -0.554 z-score.
`AACCTTATTAAGATTGTGCAAGTGCTA` has a log fluorescence of 0.16 z-score.
`TTAGGTTTCGGTTTCCGTTAGTGCTAG` has a log fluorescence of 10.7 z-score.
